Assay results gathered from unrelated publications.
Lines come from different studies, so protocols differ. Values joined by “and” are separate records of one study, mostly repeats; a detail may differ. ± marks the error that the study gave.
T1: pre-tRNA-Asp, 5-nt leader (Bacillus subtilis); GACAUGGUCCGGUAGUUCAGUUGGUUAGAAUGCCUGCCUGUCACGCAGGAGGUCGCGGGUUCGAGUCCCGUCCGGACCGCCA
Sequence of UniProt Q9NNX6 (whole entry, looked up): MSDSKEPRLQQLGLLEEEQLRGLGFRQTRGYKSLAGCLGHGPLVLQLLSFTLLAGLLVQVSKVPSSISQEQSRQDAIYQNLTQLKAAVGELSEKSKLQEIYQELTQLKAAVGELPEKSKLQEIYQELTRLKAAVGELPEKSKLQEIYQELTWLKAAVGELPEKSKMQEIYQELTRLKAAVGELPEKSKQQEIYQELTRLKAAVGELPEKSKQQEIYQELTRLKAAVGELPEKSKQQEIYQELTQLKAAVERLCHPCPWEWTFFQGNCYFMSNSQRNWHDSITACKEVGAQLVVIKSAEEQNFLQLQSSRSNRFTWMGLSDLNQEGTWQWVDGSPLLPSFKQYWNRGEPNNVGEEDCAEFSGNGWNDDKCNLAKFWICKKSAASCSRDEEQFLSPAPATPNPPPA
Sequence of UniProt Q96S37 (whole entry, looked up): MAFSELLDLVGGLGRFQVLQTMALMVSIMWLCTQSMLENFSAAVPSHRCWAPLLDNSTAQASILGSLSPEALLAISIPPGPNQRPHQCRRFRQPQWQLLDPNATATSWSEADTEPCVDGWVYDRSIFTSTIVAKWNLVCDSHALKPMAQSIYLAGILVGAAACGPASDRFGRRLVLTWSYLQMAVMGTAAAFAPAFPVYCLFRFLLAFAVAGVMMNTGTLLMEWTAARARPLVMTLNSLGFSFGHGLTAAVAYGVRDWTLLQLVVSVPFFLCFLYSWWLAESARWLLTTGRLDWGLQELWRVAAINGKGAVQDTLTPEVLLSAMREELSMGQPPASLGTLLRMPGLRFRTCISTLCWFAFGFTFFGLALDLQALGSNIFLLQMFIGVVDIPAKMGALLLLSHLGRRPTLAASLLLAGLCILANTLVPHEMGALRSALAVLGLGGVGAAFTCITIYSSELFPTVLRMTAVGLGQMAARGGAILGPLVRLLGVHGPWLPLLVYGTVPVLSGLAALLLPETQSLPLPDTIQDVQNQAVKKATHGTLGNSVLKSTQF
Sequence of UniProt P31153 (whole entry, looked up): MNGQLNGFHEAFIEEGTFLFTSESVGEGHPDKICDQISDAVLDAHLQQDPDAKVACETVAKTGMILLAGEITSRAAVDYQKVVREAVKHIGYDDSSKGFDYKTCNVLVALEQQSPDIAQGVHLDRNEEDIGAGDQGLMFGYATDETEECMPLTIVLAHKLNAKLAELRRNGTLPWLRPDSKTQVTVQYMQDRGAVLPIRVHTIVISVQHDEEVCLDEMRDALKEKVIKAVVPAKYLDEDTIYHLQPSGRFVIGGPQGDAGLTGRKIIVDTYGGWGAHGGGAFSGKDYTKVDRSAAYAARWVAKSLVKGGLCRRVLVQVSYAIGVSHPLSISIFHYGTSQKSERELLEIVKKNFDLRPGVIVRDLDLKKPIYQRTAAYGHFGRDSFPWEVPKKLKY
Sequence of UniProt P35869 (whole entry, looked up): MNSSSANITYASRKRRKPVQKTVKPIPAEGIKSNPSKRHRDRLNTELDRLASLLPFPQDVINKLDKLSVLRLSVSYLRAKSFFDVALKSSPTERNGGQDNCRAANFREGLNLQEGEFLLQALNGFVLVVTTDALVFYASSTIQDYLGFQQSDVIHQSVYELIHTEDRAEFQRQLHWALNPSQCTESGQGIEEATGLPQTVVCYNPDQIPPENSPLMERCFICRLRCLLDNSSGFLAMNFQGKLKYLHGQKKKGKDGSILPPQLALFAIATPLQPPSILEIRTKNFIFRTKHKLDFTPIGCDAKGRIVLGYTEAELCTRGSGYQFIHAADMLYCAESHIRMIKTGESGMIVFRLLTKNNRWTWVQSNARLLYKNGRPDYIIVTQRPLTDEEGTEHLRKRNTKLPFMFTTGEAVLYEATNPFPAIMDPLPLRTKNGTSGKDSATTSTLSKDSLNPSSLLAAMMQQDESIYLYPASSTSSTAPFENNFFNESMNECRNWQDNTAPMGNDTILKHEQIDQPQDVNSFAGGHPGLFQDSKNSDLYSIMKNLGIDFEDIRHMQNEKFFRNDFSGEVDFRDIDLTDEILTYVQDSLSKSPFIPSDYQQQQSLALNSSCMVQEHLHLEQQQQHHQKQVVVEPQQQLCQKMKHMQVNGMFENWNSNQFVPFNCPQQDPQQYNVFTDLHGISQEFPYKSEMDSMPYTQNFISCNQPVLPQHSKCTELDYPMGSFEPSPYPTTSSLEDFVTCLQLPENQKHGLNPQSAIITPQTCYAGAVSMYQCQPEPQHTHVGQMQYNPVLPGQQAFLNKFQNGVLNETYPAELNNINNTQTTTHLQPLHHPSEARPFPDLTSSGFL
Sequence of UniProt P02769 (whole entry, looked up): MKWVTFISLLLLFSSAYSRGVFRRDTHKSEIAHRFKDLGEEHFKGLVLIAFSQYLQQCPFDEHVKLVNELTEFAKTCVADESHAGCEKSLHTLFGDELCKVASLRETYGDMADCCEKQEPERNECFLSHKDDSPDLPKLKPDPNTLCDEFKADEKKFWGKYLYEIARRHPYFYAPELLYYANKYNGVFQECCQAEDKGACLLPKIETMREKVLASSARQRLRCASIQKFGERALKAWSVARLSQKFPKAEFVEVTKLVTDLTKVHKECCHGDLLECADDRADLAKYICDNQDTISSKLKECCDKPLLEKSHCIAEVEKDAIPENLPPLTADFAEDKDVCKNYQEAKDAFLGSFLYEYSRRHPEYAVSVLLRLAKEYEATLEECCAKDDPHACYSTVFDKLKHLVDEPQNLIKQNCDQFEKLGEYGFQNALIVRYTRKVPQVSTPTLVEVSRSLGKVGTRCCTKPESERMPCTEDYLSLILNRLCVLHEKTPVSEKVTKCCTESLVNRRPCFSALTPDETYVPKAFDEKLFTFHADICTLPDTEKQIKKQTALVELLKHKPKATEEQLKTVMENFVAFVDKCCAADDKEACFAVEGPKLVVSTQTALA
Sequence of UniProt P17931 (whole entry, unmodified, looked up): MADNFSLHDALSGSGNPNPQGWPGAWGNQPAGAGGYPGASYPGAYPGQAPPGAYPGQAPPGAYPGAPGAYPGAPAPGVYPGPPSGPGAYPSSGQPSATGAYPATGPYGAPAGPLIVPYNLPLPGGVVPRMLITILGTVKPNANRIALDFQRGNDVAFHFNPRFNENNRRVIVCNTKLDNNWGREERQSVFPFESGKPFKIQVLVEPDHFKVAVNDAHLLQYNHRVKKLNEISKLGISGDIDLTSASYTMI
Sequence of UniProt P43220 (whole entry, looked up): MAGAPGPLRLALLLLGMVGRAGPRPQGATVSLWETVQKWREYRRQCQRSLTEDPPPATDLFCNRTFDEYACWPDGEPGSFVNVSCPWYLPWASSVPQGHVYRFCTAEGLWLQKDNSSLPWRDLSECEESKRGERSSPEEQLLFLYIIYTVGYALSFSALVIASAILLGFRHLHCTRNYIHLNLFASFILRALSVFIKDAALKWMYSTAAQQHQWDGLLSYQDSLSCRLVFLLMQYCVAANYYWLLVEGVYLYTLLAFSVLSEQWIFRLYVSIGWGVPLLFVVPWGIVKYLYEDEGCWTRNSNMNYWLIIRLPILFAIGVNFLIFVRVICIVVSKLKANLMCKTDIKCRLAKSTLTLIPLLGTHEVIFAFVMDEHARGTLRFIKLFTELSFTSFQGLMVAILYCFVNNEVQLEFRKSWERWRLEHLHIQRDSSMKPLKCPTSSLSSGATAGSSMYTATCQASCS
Sequence of UniProt P10275 (whole entry, looked up): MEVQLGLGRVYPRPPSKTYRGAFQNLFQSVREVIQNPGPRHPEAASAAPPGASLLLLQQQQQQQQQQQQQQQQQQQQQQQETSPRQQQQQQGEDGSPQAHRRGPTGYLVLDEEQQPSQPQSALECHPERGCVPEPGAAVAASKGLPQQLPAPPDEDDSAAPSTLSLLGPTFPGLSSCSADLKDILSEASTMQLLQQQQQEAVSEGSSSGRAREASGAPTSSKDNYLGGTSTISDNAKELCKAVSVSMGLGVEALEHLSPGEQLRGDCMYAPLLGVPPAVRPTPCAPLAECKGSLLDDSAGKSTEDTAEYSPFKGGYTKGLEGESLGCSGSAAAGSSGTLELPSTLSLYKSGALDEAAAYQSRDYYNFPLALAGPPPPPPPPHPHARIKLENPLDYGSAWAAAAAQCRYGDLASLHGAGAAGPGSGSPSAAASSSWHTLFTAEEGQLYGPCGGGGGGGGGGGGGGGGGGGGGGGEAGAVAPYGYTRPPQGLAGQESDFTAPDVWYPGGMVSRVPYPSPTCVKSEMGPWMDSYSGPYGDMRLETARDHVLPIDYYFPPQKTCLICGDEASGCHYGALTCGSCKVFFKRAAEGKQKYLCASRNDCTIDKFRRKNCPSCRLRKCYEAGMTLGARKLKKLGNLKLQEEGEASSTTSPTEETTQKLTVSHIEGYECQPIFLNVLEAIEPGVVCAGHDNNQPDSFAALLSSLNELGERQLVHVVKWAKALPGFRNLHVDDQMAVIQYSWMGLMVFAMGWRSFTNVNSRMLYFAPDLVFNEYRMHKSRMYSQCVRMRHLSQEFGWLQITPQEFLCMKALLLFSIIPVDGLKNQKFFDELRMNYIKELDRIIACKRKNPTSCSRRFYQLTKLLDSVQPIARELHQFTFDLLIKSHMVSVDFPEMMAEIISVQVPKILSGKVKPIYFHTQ
Sequence of UniProt O49686 (whole entry, looked up): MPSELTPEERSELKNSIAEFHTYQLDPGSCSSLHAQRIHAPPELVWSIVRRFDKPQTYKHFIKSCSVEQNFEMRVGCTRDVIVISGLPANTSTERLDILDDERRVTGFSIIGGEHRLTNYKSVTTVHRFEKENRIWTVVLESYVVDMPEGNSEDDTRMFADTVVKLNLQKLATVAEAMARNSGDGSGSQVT

CCCN1C(=O)CCc2cc(NS(=O)(=O)Cc3ccc(C)cc3)ccc21: “potency relative to pyrabactin” 7.6 fold (Abscisic acid receptor PYR1, with HAB1 (PYR1, Arabidopsis thaliana, UniProt O49686); PYR1-HAB1 interaction, agonist, AlphaScreen; relative to: pyrabactin).
With CCC(=O)N(C)c1ccc(Cl)c(Cl)c1 the fold activation was 1.41 fold (AHR (Homo sapiens, UniProt P35869); reporter gene, agonist; 1.0 µM; relative to: vehicle).
COc1ccccc1-c1cc(C(F)(F)F)nc(S(=O)(=O)CCCC(=O)Nc2ccn(Cc3ccc(C)cc3)n2)n1 has an Emax of 48 ± 3.9% (GLP1R (Homo sapiens, UniProt P43220); cAMP accumulation, positive allosteric modulator; HEK-293T overexpressing GLP1R; together with: EC20 GLP-1).
With COc1c(F)c(F)c(C(=O)N[C@H]2[C@@H](O)[C@@H](CO)O[C@@H](S[C@@H]3O[C@H](CO)[C@H](O)[C@H](NC(=O)c4c(F)c(F)c(OC)c(F)c4F)[C@H]3O)[C@@H]2O)c(F)c1F the ΔH was -54 ± 3 kJ/mol (Galectin-3 (LGALS3, Homo sapiens, UniProt P17931); ITC).
For C[C@@H]1O[C@@H](O[C@@H]2[C@H](O)[C@H](O[C@@H]3[C@@H](O)[C@@H](O)C(O)O[C@H]3C)O[C@H](CO)[C@H]2O)[C@H](O)[C@H](O)[C@H]1O (stereo partly drawn), binding read “no binding” (CD209 antigen (CD209, Homo sapiens, UniProt Q9NNX6); binding to extracellular domain, STD NMR; concentration not given, protein:ligand ratio 1:30).
For COc1ccc(/C=C/C(=O)NC[C@H]2O[C@H](OC)[C@@H](O)[C@@H](O)[C@@H]2O)cc1OC, the binding stoichiometry was 1 and 1.03 (lecB (Pseudomonas aeruginosa, UniProt Q9HYN5); ITC; concentration not given, 25 °C).
CCCCCCCCCCCSc1nc2c([nH]1)c(=O)n(C)c(=S)n2C gave a remaining activity of 91% (Androgen receptor (AR, Homo sapiens, UniProt P10275); reporter gene, antagonist, PSA-luciferase; HeLa-A6; 10 µM, 24 h, together with: 5 nM dihydrotestosterone; relative to: maximal activity).
For NC[C@H]1O[C@H](O[C@H]2[C@H](O)[C@@H](O[C@H]3O[C@H](CO)[C@@H](O)[C@H](N)[C@H]3O)[C@H](N)C[C@@H]2N)[C@H](N)[C@@H](O)[C@@H]1O, the Kd was 220 µM (T1, pre-tRNA-Asp, 5-nt leader (Bacillus subtilis); fluorescence anisotropy; pH 7.2, 37 °C, MgCl2 10 mM, apparent, together with: RNA 50 nM).
The donor-acceptor distance of Cc1ccc2ccc3ccc(C)nc3c2n1.Cc1ccc2ccc3ccc(C)nc3c2n1.O.[Cl-].[Cl-].[Cl-].[Yb+3] is reported as 2.69 nm (Albumin (ALB, Bos taurus, UniProt P02769); FRET, measured: tryptophan; 25 °C, excitation 280 nm).
Nc1ncnc2c1ncn2[C@@H]1O[C@H](COP(=O)(O)NP(=O)(O)OP(=O)(O)O)[C@@H](O)[C@H]1O: “kcat fold decrease” ~100 fold (MAT2A (Homo sapiens, UniProt P31153); AdoMet formation, substrate; relative to: ATP over analogue).
CC(C)(Sc1nc2ncccc2n1Cc1ccc(Br)c2ccccc12)C(=O)O — result for “Vmax urate uptake”: 2260 pmol/min/mg (SLC22A12 (Homo sapiens, UniProt Q96S37); HEK293T transfected; competitive model fit, together with: [14C]urate).
The –TΔS of CC[C@H](C)[C@H](NC(=O)[C@@H]1CCCN1C(=O)[C@H](CCCCN)NC(=O)[C@H](CO)NC(=O)[C@H](CO)NC(=O)[C@H](Cc1ccc(O)cc1)NC(=O)[C@H](CO)NC(=O)[C@H](C)NC(=O)[C@H](CO)NC(=O)[C@@H](N)Cc1ccccc1)C(=O)N[C@@H](CCC(N)=O)C(=O)N[C@H](C(=O)N[C@@H](CCC(N)=O)C(=O)N[C@H](C(=O)N[C@@H](CO)C(=O)N[C@@H](CC(N)=O)C(=O)NCC(=O)N[C@@H](CCSC)C(=O)N[C@@H](CC(=O)O)C(=O)N[C@@H](CC(N)=O)C(=O)N[C@@H](C)C(=O)N[C@@H](CO)C(=O)N[C@@H](C)C(=O)N1CCC[C@H]1C(=O)N[C@H](C(=O)O)C(C)C)C(C)C)[C@@H](C)O is reported as 2.03 kcal/mol (Peptide cyclase 1 (Gypsophila vaccaria, UniProt R4P353, S562A); ITC; pH 8.0, 25 °C).
